# Measurements from different studies.
# Every numbered part comes from another study and shows a few of its results, in no order. ± gives the spread as reported.
# UniProt Q13164, sequence (whole entry, looked up): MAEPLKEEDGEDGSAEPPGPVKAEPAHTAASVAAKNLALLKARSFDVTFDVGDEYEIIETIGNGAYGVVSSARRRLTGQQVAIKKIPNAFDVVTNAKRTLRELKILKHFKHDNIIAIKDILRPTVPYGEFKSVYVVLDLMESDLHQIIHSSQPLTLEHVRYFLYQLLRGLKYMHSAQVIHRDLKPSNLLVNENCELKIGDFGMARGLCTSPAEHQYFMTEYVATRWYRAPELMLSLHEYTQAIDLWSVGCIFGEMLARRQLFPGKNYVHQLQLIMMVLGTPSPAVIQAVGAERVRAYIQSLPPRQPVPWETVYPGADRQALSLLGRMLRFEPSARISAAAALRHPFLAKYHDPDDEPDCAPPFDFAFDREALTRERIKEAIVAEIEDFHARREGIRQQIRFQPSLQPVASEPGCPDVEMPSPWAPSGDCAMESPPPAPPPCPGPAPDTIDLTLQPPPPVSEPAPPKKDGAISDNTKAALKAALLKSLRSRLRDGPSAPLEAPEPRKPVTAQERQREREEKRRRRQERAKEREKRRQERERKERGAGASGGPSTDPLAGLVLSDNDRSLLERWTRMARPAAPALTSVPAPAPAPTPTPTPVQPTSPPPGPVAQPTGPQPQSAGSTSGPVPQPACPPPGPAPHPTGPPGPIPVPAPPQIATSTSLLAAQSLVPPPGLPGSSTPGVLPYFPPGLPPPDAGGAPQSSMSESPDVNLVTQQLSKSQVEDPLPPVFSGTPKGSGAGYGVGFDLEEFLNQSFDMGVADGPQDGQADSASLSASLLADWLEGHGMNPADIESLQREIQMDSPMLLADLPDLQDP
# UniProt P11309, sequence (whole entry, looked up): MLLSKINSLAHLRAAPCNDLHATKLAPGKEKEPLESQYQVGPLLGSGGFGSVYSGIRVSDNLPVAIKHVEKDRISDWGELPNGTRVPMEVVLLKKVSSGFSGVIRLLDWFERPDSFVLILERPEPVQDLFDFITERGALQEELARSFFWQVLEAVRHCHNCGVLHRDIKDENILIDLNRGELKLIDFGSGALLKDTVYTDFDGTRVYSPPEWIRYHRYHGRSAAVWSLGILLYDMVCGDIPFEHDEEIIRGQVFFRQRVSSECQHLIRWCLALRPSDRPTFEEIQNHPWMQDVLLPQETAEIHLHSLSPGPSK
# UniProt Q59H18, sequence (whole entry, looked up): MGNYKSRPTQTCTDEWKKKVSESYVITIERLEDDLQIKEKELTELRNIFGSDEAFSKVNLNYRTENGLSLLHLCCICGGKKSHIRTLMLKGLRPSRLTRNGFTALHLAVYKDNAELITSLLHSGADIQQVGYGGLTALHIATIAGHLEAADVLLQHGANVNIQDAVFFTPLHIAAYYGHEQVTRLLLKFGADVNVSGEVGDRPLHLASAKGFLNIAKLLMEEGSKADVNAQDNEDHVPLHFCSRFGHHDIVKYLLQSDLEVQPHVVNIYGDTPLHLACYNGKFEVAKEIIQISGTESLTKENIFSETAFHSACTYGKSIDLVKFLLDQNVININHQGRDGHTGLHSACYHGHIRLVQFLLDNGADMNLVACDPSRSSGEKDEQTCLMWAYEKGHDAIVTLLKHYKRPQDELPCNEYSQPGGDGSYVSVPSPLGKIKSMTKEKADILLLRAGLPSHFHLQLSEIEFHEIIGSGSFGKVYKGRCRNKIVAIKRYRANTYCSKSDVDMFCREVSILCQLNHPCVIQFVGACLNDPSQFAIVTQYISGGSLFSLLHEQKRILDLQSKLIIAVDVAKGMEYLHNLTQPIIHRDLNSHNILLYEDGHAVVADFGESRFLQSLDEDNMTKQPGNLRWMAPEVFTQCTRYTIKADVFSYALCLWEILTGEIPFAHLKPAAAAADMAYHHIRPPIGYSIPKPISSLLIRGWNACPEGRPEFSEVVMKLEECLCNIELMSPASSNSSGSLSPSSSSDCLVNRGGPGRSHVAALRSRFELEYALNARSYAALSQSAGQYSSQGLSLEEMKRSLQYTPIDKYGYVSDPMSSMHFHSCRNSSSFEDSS
# UniProt O43318, sequence (whole entry, looked up): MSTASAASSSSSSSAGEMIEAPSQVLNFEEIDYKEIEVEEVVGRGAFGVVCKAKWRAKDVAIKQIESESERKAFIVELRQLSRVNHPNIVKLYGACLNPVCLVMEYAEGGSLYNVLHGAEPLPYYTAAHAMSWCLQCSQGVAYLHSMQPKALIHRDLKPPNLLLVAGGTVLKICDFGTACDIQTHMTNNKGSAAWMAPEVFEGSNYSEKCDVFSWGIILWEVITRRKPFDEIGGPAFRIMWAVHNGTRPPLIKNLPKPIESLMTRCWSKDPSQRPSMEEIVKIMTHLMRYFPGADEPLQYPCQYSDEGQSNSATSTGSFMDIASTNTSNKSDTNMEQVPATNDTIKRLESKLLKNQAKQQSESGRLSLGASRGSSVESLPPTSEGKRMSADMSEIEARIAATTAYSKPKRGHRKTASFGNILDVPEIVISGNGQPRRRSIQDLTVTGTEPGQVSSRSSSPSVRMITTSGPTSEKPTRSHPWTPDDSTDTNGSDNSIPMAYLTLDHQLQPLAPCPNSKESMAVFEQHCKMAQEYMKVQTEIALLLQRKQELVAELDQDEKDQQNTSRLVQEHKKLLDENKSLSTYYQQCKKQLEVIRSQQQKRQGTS
# UniProt Q04771, sequence (whole entry, looked up): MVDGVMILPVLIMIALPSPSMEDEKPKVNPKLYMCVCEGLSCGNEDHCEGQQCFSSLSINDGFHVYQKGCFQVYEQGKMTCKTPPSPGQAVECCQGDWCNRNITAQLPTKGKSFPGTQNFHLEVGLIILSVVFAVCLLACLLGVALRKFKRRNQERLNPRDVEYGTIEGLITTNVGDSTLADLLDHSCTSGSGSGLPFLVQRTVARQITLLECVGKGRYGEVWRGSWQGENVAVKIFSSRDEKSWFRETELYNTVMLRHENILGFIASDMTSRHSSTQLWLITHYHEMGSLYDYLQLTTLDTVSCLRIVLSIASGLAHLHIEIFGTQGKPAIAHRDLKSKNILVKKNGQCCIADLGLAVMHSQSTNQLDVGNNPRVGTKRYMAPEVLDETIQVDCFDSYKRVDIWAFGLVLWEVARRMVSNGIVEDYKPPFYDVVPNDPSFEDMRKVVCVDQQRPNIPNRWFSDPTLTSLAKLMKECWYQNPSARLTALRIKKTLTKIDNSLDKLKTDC
# UniProt P22455, sequence (whole entry, looked up): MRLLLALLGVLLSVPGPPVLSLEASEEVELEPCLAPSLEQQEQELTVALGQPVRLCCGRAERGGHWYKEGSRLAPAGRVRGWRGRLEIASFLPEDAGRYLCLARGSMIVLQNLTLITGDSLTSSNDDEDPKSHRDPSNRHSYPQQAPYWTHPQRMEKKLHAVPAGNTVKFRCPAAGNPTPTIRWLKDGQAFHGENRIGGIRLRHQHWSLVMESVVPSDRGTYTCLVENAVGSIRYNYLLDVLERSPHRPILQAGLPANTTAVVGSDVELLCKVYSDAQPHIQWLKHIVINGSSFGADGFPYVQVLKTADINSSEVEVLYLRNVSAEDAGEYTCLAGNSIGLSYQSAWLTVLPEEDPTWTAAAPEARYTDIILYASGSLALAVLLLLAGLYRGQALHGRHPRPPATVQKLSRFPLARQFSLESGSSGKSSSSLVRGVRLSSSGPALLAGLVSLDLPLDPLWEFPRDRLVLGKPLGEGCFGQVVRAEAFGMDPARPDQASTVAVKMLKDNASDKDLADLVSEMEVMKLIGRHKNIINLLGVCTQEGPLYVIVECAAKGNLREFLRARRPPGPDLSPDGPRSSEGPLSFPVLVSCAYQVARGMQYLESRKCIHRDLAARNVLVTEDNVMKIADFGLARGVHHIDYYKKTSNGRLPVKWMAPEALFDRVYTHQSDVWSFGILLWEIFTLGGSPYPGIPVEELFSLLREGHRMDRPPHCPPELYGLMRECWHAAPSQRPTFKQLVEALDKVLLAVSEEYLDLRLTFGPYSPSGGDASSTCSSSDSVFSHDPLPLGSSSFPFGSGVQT

# Block 1
# Target: UBC/CDC34 (Homo sapiens, UniProt P0CG48+P49427)
# UniProt P49427, sequence (whole entry, looked up): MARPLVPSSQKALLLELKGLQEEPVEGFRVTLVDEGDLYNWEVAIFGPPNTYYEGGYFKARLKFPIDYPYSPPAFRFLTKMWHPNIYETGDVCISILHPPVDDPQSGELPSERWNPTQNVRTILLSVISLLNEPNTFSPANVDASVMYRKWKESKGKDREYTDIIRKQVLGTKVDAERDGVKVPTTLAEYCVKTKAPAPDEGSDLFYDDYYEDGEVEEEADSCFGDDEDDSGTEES
# Method: TR-FRET
Compound,EC50 [µM]
COCC(=O)N1CCC(Cc2ccc(-c3cc(Cl)cc(Cl)c3)cc2)(C(=O)NC[C@@H](C)O)CC1,> 100
COCC(=O)N1CCC(Cc2ccc(-c3cc(Cl)cc(Cl)c3)cc2)(C(=O)NC2CCOCC2)CC1,> 100
COCC(=O)N1CCC(Cc2ccc(-c3cc(Cl)cc(Cl)c3)cc2)(C(=O)NC[C@@H](O)CO)CC1,> 100
CCOC(=O)C1(Cc2ccc(-c3cc(Cl)cc(Cl)c3)cc2)CCN(C(=O)c2ccno2)CC1,> 100
COCC(=O)N1CCC(Cc2ccc(-c3cc(Cl)cc(Cl)c3)cc2)(c2nnc(C)o2)CC1,> 100

# Block 2
# SMILES: C[C@@H]1CN(c2cc(-c3n[nH]c4ccc(OC5(C)CC5)cc34)ncn2)C[C@H](C)O1
# Method: competition with immobilised ligand
target,test,conditions,remaining binding [%]
"PIK3CA (Homo sapiens, UniProt P42336, I800L)",cell-free assay,0.1 µM,87
"FGFR4 (Homo sapiens, UniProt P22455)",cell-free assay,0.1 µM,100
"DCLK3 (Homo sapiens, UniProt Q9C098)",cell-free assay,0.1 µM,92
"FLT3 (Homo sapiens, UniProt P36888)",binding,1 µM,46
"TNNI3K (Homo sapiens, UniProt Q59H18)",cell-free assay,0.1 µM,78
"ACVR1 (Homo sapiens, UniProt Q04771)",cell-free assay,0.1 µM,90
"MAP3K7 (Homo sapiens, UniProt O43318)",cell-free assay,0.1 µM,70
"HIPK2 (Homo sapiens, UniProt Q9H2X6)",cell-free assay,0.1 µM,80
"MAPK7 (Homo sapiens, UniProt Q13164)",cell-free assay,0.1 µM,92
"MAP2K6 (Homo sapiens, UniProt P52564)",cell-free assay,0.1 µM,100
"BRAF (Homo sapiens, UniProt P15056)",cell-free assay,0.1 µM,91
"EGFR (Homo sapiens, UniProt P00533, del747-752/P753S)",cell-free assay,0.1 µM,69

# Block 3
# SMILES: COc1cc2c(Nc3ccc(Br)cc3F)ncnc2cc1OCC1CCN(C)CC1
# Read-out: enzyme activity
# Mode: inhibitor
# Concentration: 0.5 µM
# Relative to: control
target,remaining activity [%]
"MARK1 (Homo sapiens, UniProt Q9P0L2)",83.7
"PIM1 (Homo sapiens, UniProt P11309)",95
"FES (Homo sapiens, UniProt P07332)",104

# Block 4
# Cell line: A-375
# Concentration: 100 µM
# Time: 36 h
SMILES,viability [%]
C1N2CN3CN1CN(C2)C3,116
CCC(=O)OCC(=O)[C@@]1(OC(=O)CC)[C@@H](C)C[C@H]2[C@@H]3CCC4=CC(=O)C=C[C@]4(C)[C@@]3(F)[C@@H](O)C[C@@]21C,62.4
CN(C)CCCN1c2ccccc2Sc2ccc(Cl)cc21,-0.0689
Clc1ccc(C(Cn2ccnc2)OCc2ccsc2Cl)c(Cl)c1 (stereo not shown),-2.97
CC(N)CCCC(C)(C)O (stereo not shown),79
CN1CCC(=C2c3ccccc3CCn3c(C=O)cnc32)CC1,74.4

# Other studies, line by line
Structure (SMILES),tested on,test,system,conditions,measurement,result
OCCN1CCN(CCCN2c3ccccc3Sc3ccc(Cl)cc32)CC1,,,"mouse, serum",dose not given,serum total bilirubin,1.1 ± 0.5 mg/dL
CC(C)(C)OC(=O)NCCOCCOCCOCCNC(=O)CCCCn1ccnc1Cn1ccc2ccc(CNCc3[nH]c4ccccc4c3C3NC(=O)c4ccc(O)cc43)cc21 (stereo not shown),"GTPase KRas (KRAS, Homo sapiens, UniProt P01116, G12C)",cell-based,,,IC50,4.8 µM

# A few entries again (block 2):
target,test,conditions,remaining binding [%]
"FGFR4 (Homo sapiens, UniProt P22455)",cell-free assay,0.1 µM,100
"HIPK2 (Homo sapiens, UniProt Q9H2X6)",cell-free assay,0.1 µM,80
"PIK3CA (Homo sapiens, UniProt P42336, I800L)",cell-free assay,0.1 µM,87
"FLT3 (Homo sapiens, UniProt P36888)",binding,1 µM,46
"DCLK3 (Homo sapiens, UniProt Q9C098)",cell-free assay,0.1 µM,92
